Experimental data collected from several papers.
Lines come from different studies, so protocols differ. Numbers after ± are the reported error.

`CCOP(=O)(CC(=O)Nc1ccc(S(=O)(=O)N(CC(N)=O)c2ccc(N(CC(N)=O)S(=O)(=O)c3ccc(OC)cc3)c3ccccc23)cc1)OCC` — result for “mitochondrial membrane potential”: “increased” (mouse primary cortical neurons; JC-1; 20 µM, with: amyloid beta 1-42).
For `COc1ccc([C@@H]2CC(=O)c3c(O)cc(O[C@@H]4O[C@H](CO[C@@H]5O[C@@H](C)[C@H](O)[C@@H](O)[C@H]5O)[C@@H](O[C@H]5O[C@H](CO)[C@@H](O)[C@H](O)[C@H]5O)[C@H](O)[C@H]4O)cc3O2)cc1O`, the cell count was 8330 ± 523 (MRC5; trypan blue exclusion; 100 µg/mL, 24 h).
`COc1cc(CNC(=O)C[C@H](C)CCC=C(C)C)ccc1OCc1cn(-c2ccccc2F)nn1` has a growth percent of 71% (BT-549 breast cancer cells; SRB; 10 µM, 48 h).
With `COC(=O)C1C(C=NNCC(F)(F)F)=Cc2cc3c(cc2C1c1cc(OC)c(OC)c(OC)c1)OCO3` (stereo not drawn) the selectivity index was > 4.1 (uninfected mouse splenocytes; baseline: splenocyte CC50 over amastigote EC50).
`Cc1[nH]nc2c1N=C(c1ccccc1Cl)c1cnc(N3CCOCC3)cc1N2`: phosphorylation “inhibited” (HCC1806; Western blot, refers to: phospho-Aurora A/B and phospho-histone H3; concentration not given, 24 h, nocodazole-synchronized).
With `Cc1sc2c(c1C)C(c1ccc(Cl)cc1)=N[C@@H](CC(=O)N1CCN(CC3CCN(C(=O)CN4CCC(Nc5cccc6c5cc(C#CCNc5ccc(P(C)(C)=O)cc5)n6CC(F)(F)F)CC4)CC3)CC1)c1nnc(C)n1-2` the reporter activity was 40 fold (BxPC-3; p53 reporter gene; 10 µM, 24 h; baseline: DMSO).
`Cc1ncsc1-c1ccc(C(CO)NC(=O)C2CC(O)CN2C(=O)C(C(C)C)n2cc(-c3ccc(COc4c(-c5c(C)c(F)cc6[nH]ncc56)c(C5CC5)cc5c(N6CC7CC6CN7)nc(OC6CCOCC6)nc45)cc3)nn2)cc1` (stereo not drawn): phosphoprotein level “decreased” (AsPC-1; immunoblot, refers to: p-ERK, p-AKT, p-S6; concentration not given, 24 h).
`COC(=O)[C@@H](Cc1cn(Cc2ccc(C)cc2)nn1)NC(=O)OCC1c2ccccc2-c2ccccc21`: “cell growth inhibition” “no effect” (AsPC-1; MTS; 100 µM, 72 h).
`Oc1ccccc1-c1nn(-c2ccccn2)[n+](-c2ccccc2)n1.[Br-]` has a dead cells of 12% (A2780; LIVE/DEAD flow cytometry; 40 µM, 48 h).
`CCOC(=O)COc1cc(Oc2ccc(S(=O)(=O)c3ccc(OC(C)C)cc3)cc2)c([N+](=O)[O-])cc1C(=O)C(Cl)Cl` has an inhibition of > 95% (NCI-H1299; cell growth or viability, MTT; 2.5 µM).
`CCCCN1C(=O)c2cccc3c(NCCCCCCCCN4CCOCC4)ccc(c23)C1=O` — result for “Pearson correlation coefficient”: 0.88 ± 0.02 (BHK-21; lysosome colocalization, confocal microscopy; 0.2 µM, with: LysoTracker Deep Red 0.3 µM).
For `O=Cc1c(O)ccc2ccccc12`, “log2 fold change” read 3.21 (HUVEC; RNA sequencing, refers to: DDIT4; 75 µM, 24 h; baseline: DMSO).
The Emax of `COc1nc(Nc2nc(O)c3ccccc3n2)nc2ccc(C)cc12` is reported as 39% (LDR; silenced GFP reporter derepression, microscopy; overnight; baseline: sodium butyrate).
For `Cc1ccc(C(C)C)cc1.[Cl-].[Cl][Ru+].[Ru+].c1ccc(-c2cn(CCCCOc3ccccc3-c3nc4ccccc4s3)nn2)nc1`, “cells in phase” read 18.5% (MCF7; PI flow cytometry, refers to: G2/M phase; 4 µM, 24 h).
The selectivity index of `CCCC(CCC)C(=O)[O][Pt]([NH2])([NH2])([Cl])([Cl])[O]C(=O)C(Cl)Cl` is reported as 3.2 (HEK293 and PSN1; cytotoxicity, MTT; baseline: IC50 HEK293 over IC50 PSN1).
For `CC1=CCC23OC2(C)CCC2C(CN(C)C)C(=O)OC2C13.Cl` (stereo not drawn), the proliferation reduction was 5 fold (C6 rat glioma cells; 0.2 mg/mL, clonogenic; baseline: control).
With `COc1cc(CNC(=O)C[C@H](C)CCC=C(C)C)ccc1OCc1cn(-c2ccccc2)nn1` the growth percent was 85.7% (M14 melanoma cells; SRB; 10 µM, 48 h).
`Cc1noc(NS(=O)(=O)c2ccc(NC(=O)c3cc(-c4ccc5ccccc5c4)nc4ccccc34)cc2)c1C` has an inhibition of 34.3 ± 5.6% (mouse spleen cells; cell proliferation, MTT; 10 µM, 72 h, with: concanavalin A 5 µg/mL).
`COc1cc(CNC(=O)C[C@H](C)CCC=C(C)C)ccc1OCc1cn(-c2ccccc2Cl)nn1` gave a growth percent of 28.2% (BT-549 breast cancer cells; SRB; 10 µM, 48 h).
The resistance factor of `CC(C)c1cccc(C(C)C)c1N1CCN(c2c(C(C)C)cccc2C(C)C)C1=[Se].[Cl][Ag]` is reported as 1.7 (LoVo-OXP colon cancer cells; MTT; baseline: LoVo-OXP over LoVo IC50).
`COc1ccc([C@@H]2CC(=O)c3c(O)cc(O[C@@H]4O[C@H](CO[C@@H]5O[C@@H](C)[C@H](O)[C@@H](O)[C@H]5O)[C@@H](O)[C@H](O)[C@H]4O)cc3O2)cc1O` has a viability of 37.6% (A549; cell growth or viability, MTS; 150 µg/mL, 72 h).
`COc1cc(CNC(=O)C[C@H](C)CCC=C(C)C)ccc1OCc1cn(-c2cccc(C(F)(F)F)c2)nn1` gave a growth percent of 92.1% (M14 melanoma cells; SRB; 10 µM, 48 h).
For `CC/C=C\C/C=C\C/C=C\C/C=C\C/C=C\C/C=C\CCC(=O)Nc1ccn(C2OC(CO)C(O)C2(F)F)c(=O)n1` (stereo not drawn), the TGI was 12.9 µM (SF-268; NCI60 screen).
`Brc1cccc(CNc2nc(NCc3ccccc3)c3ccccc3n2)c1` has a GI50 of 2.8 µM (SW-403; cell growth or viability; 72 h).
With `C#CCN(CC(=O)O[C@H]1[C@H](C)O[C@@H](O[C@H]2[C@H](N(C)C)[C@@H](O)[C@H](O[C@H]3[C@@H](CC=O)C[C@@H](C)[C@@H](O[C@H]4CC[C@H](N(C)C)[C@@H](C)O4)/C=C/C=C/C[C@@H](C)OC(=O)C[C@@H](O)[C@@H]3OC)O[C@@H]2C)C[C@@]1(C)O)C(=O)c1ccc(C(F)(F)F)cc1` the apoptotic cells was 70.9% (HGC-27; annexin V/PI flow cytometry; 0.9 µM).
Under BubR1 phosphorylation, `COc1cc2c(Nc3ccc(NC(=O)c4ccccc4)cc3)ncnc2cc1OCCCN1CCOCC1` is recorded as “not detected” (HeLa, mitotic; concentration not given, 9.5 h after G1/S release).
The growth percent of `COc1cc(CNC(=O)C[C@H](C)CCC=C(C)C)ccc1OCc1cn(-c2ccc(Cl)cc2Cl)nn1` is reported as 50% (SNB-19 CNS cancer cells; SRB; 10 µM, 48 h).
With `O=C(O)CCC(NP(=O)(O)OCCC[C@@H](NC(=O)CC[C@H](NC(=O)CCCCCNC(=O)c1ccc([18F])cc1)C(=O)O)C(=O)O)C(=O)O` (stereo partly drawn) the internalization was 92.1 ± 0.7% (LNCaP; concentration not given, 4 h).
`COc1cc(CNC(=O)C[C@H](C)CCC=C(C)C)ccc1OCc1cn(-c2ccc(C#N)cc2)nn1` has a growth percent of 98% (OVCAR-5 ovarian cancer cells; SRB; 10 µM, 48 h).
For `COCC/N=C(\S)N/N=C(\C)c1ccccc1O`, the Emax was 98% (LDR; silenced GFP reporter derepression, microscopy; overnight; baseline: sodium butyrate).
`Cc1noc(NS(=O)(=O)c2ccc(NC(=O)c3cc(-c4cccc(Cl)c4)nc4ccccc34)cc2)c1C` has an inhibition of 47.4 ± 4.98% (mouse spleen cells; cell proliferation, MTT; 100 µM, 72 h, with: concanavalin A 5 µg/mL).
`CCOC(=O)c1nc2cc(Cl)c(Cl)cc2nc1N1CCN(C(=O)Nc2ccc(N3CCNCC3)cc2)CC1` — result for NRF2 accumulation: “no effect” (KEAP1-mutant cancer cell lines; concentration not given).
`C=C(CC)C(=O)c1ccc(OCC(=O)NCCNC(=O)COc2ccc(C(=O)C(=C)CC)c(Cl)c2Cl)c(Cl)c1Cl` — result for “sensitisation to cisplatin”: ~2 fold (CoC1; cell growth, CCK-8; 1.0 µM, with: cisplatin).

Excerpt of the above:
`CCCCN1C(=O)c2cccc3c(NCCCCCCCCN4CCOCC4)ccc(c23)C1=O` — result for “Pearson correlation coefficient”: 0.88 ± 0.02 (BHK-21; lysosome colocalization, confocal microscopy; 0.2 µM, with: LysoTracker Deep Red 0.3 µM).
For `O=Cc1c(O)ccc2ccccc12`, “log2 fold change” read 3.21 (HUVEC; RNA sequencing, refers to: DDIT4; 75 µM, 24 h; baseline: DMSO).
